Measured values gathered from unrelated publications.
Parts stem from different laboratories: compare values within a part only. Positions count from the first letter of the parent shown.

Study 1
Target: CCNA1, cyclin fold, Cln2 fusion (human)
Method: yeast growth competition, sequencing
Matrix: yeast
Notes: weak parent motif
Reference: not given
Reading: higher = stronger binding
Quantity: normalised enrichment score
Starting sequence: CDKN1A docking peptide (human); SKACRRLFGPVDS
SKICRRLFGPVDS [A3I]: 0.374
SKACRRLFGCVDS [P10C]: 0.0667
SKACRRCFGPVDS [L7C]: 0.479
SKACRRLFGPWDS [V11W]: 0.741
SKACRRLWGPVDS [F8W]: -0.195
SKACRRLFFPVDS [G9F]: 0.526
SKACIRLFGPVDS [R5I]: -0.182

Study 2
Target: Sal-like protein 4, full length isoform B (SALL4, Homo sapiens, UniProt Q9UJQ4-2, residues 1-616)
Method: universal PBM
Form: double-stranded DNA, one strand shown
Matrix: in vitro
Tested at: not given
Notes: 8-mer, flanks averaged, mean of replicates
Reading: higher = stronger binding
Quantity: E-score
GAAAAGGC: 0.154
AAGTTAGT: 0.12
CGCCCTGC: -0.28
ATCTCCTA: 0.0676
AGCACAGA: 0.0741
GCGTTAGC: -0.0358

Study 3
Target: Sox, HMG box (Pigoraptor chileana)
Method: Spec-seq
Form: double-stranded DNA, one strand shown
Matrix: in vitro
Tested at: not given
Notes: whole probe, mean of replicates
Reference: not given
Reading: lower = stronger binding
Quantity: relative binding energy
Constant ends, left off below: GAGTCGTCTCGTCAGCAC … CCGTAGAGCACTCAGGTC
Construct (chain): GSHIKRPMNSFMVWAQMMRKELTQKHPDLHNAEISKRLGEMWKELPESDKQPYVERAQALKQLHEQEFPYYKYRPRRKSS
CATAGGT: -0.261 ln ratio
AATGGTT: -2.76 ln ratio
TTACGTT: 0.539 ln ratio
CATACCG: 0.168 ln ratio
ACTTGTT: -2.56 ln ratio
TTCCGTT: 0.879 ln ratio
CATCCAT: 0.349 ln ratio
TTAAGTT: 0.414 ln ratio
CATCGGA: 0.639 ln ratio
AGGCGTT: 0.633 ln ratio

Further values, each from its own experiment
PhoQ, residues 284 288 289 292 302 303 TGYLSA  fold induction (PhoP, residues 12 14 15 18 19 AGCRL (Escherichia coli, UniProt P23836); Sort-seq, refers to: YFP reporter; E. coli; PhoQ-PhoP variant library, with: 10 µM Mg2+; reference: high Mg2+ state, higher = stronger signaling): 2.51
